Measurements pooled from the literature.
Protocols differ between the studies behind these lines. ± marks the error that the study gave.
Method: steady-state kinetics
B1: protein G96D (Streptomyces coelicolor, UniProt P16544); chain MATQDSEVALVTGATSGIGLEIARRLGKEGLRVFVCARGEEGLRTTLKELREAGVEADGRTCDVRSVPEIEALVAAVVERYGPVDVLVNNAGRPGDGATAELADELWLDVVETNLTGVFRVTKQVLKAGGMLERGTGRIVNIASTGGKQGVVHAAPYSASKHGVVGFTKALGLELARTGITVNAVCPGFVETPMAASVREHYSDIWEVSTEEAFDRITARVPIGRYVQPSEVAEMVAYLIGPGAAAVTAQALNVCGGLGNY
B2: enzyme (Levilactobacillus brevis, UniProt Q03Q85); chain MKVTVVGCTHAGTFAIKQILAEHPDAEVTVYERNDVISFLSCGIALYLGGKVADPQGLFYSSPEELQKLGANVQMNHNVLAIDPDQKTVTVEDLTNHAQTTESYDKLVMTSGSWPIVPKIPGIDSDRVKLCKNWAHAQALIEDAKEAKRITVIGAGYIGAELAEAYSTTGHDVTLIDAMARVMPKYFDADFTDVIEQDYRDHGVQLALGETVESFTDSATGLTIKTDKNSYETDLAILCIGFRPNTDLLKGKVDMAPNGAIITDDYMRSSNPDIFAAGDSAAVHYNPTHQNAYIPLATNAVRQGILVGKNLVKPTVKYMGTQSSSGLALYDRTIVSTGLTLAAAKQQGLNAEQVIVEDNYRPEFMPSTEPVLMSLVFDPDTHRILGGALMSKYDVSQSANTLSVCIQNENTIDDLAMVDMLFQPNFDRPFNYLNILAQAAQAKVAQSVNA
B3: enzyme (Thermobifida fusca, UniProt Q47RA9); chain MIMIMASKSSPHDLPDVSGLSIAVLGGTGDQGRGLARRFAMAGHEVILGSRSAERAQAVAAELGEGLPVRGMDNAGAAEAGDVVIVAVPWDGHRALLESLKDVLAGKIVVDCVNPLGFDKRGAYALPVEEGSAAEQAAAILPDSRVVAAFHHVSAVLLLDPEVEKVDLDVLVLGDDREATDVVRALAARIPGVRGVYGGRLRNAHQVEAFTANLISINRRYKAHAGIRITDI
B4: enzyme E323G (UniProt H9KVH3); chain ADASQIVSEMGAGWNLGNQLEAAVNGTPNETAWGNPTVTPELIKKVKAAGFKSIRIPVSYLNNIGSAPNYTINAAWLNRIQQVVDYAYNEGLYVIINIHGDGYNSVQGGWLLVNGGNQTAIKEKYKKVWQQIATKFSNYNDRLIFESMNEVFDGNYGNPNSAYYTNLNAYNQIFVDTVRQTGGNNNARWLLVPGWNTNIDYTVGNYGFTLPTDNYRSSAIPSSQKRIMISAHYYSPWDFAGEENGNITQWGATSTNPAKKSTWGQEDYLESQFKSMYDKFVTQGYPVVIGGFGSIDKTSYDSSNNVYRAAYAKAVTAKAKKYKMVPVYWDNGHNGQHGFALFNRSNNTVTQQNIINAIMQGMQ
B5: TcC (Trypanosoma cruzi, UniProt Q4DGA3); chain MPREYEFAEKILFTEEEIRTRIMEVAKRIADDYKGKGLRPYVNPLVLISVLKGSFMFTADLCRALSDFNVPVRMEFICVSSYGEGVTSSGQVRMLLDTRHSIEGHHVLIVEDIVDTALTLNYLYHMYFTRRPASLKTVVLLDKREGRRVPFSADYVVANIPNAFVIGYGLDYDDTYRELRDIVVLRPEVYAEREAARQKKQRAIGSADTDRDAKREFHSKY
B6: enzyme (Neurospora crassa, UniProt Q7SCU7); chain ATSSVSKIVSQPRSLAEVCAALRAKLLAFLALHSNDETVQGTQRRARDAMEVIEEALRRYRPEELSLSYNGGKDCLVLLILILACWPASVQPPSSSSSSSSSSISNSSKQTLPRLQCIYIAPPDPFQEVEDFVATTTEEYHLDLARYALPMRQALDSYLDEKPHVKAVFMGTRRTDPHSEFLNNFTPTDKGWPQFMRINPVLDWHYVEIWTFIRQLDIPFCSLYSQGFSSLGGTKDTRPNPALALNAEGNKFRPAYELTRDDEERLGRDR
B7: iodotyrosine deiodinase (Haliscomenobacter hydrossis, UniProt F4KU78); chain MKQKPAFIPYAGAQFEPEEMLSKSAEYYQFMDHRRTVREFSNRAIPLEVIENIVMTASTAPSGAHKQPWTFVVVSDPQIKAKIRQAAEKEEFESYNGRMSNEWLEDLQPFGTDWHKPFLEIAPYLIVVFRKAYDVLPDGTQRKNYYVQESVGIACGFLLAAIHQAGLVALTHTPSPMNFLQKILQRPENERPFLLVPVGYPAEGAMVPDLQRKDKAAVMVVY
B8: enzyme (Acinetobacter baumannii, UniProt D0CBC8); chain MALVLDGRALAKQIEENLLVRVEALKAKTGRTPILATILVGDDGASATYVRMKGNACRRVGMDSLKIELPQETTTEQLLAEIEKLNANPDVHGILLQHPVPAQIDERACFDAISLAKDVDGVTCLGFGRMAMGEAAYGSATPAGIMTILKENNIEIAGKHAVVVGRSAILGKPMAMMLLQANATVTICHSRTQNLPELVKQADIIVGAVGKAELIQKDWIKQGAVVVDAGFHPRDGGGVGDIQLQGIEEIASAYTPVPGGVGPMTITTLIRQTVEAAEKALG
B9: BPHL (Homo sapiens, UniProt Q86WA6); chain SVTSAKVAVNGVQLHYQQTGEGDHAVLLLPGMLGSGETDFGPQLKNLNKKLFTVVAWDPRGYGHSRPPDRDFPADFFERDAKDAVDLMKALKFKKVSLLGWSDGGITALIAAAKYPSYIHKMVIWGANAYVTDEDSMIYEGIRDVSKWSERTRKPLEALYGYDYFARTCEKWVDGIRQFKHLPDGNICRHLLPRVQCPALIVHGEKDPLVPRFHADFIHKHVKGSRLHLMPEGKHNLHLRFADEFNKLAEDFLQ
Chain of UniProt Q8QZR1 (whole entry, looked up): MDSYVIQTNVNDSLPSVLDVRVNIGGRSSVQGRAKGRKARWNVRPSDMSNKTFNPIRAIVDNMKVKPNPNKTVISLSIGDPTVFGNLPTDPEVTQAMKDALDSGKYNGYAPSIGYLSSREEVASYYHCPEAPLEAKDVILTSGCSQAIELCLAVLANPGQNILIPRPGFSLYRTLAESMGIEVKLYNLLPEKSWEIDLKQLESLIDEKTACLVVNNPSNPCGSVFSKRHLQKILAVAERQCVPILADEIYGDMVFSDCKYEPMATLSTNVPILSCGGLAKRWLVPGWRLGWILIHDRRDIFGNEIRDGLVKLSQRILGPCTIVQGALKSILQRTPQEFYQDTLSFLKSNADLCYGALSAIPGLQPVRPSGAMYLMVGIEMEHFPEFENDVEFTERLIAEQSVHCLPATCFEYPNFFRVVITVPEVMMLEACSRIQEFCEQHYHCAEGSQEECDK
Chain of UniProt Q9STE6 (whole entry, looked up): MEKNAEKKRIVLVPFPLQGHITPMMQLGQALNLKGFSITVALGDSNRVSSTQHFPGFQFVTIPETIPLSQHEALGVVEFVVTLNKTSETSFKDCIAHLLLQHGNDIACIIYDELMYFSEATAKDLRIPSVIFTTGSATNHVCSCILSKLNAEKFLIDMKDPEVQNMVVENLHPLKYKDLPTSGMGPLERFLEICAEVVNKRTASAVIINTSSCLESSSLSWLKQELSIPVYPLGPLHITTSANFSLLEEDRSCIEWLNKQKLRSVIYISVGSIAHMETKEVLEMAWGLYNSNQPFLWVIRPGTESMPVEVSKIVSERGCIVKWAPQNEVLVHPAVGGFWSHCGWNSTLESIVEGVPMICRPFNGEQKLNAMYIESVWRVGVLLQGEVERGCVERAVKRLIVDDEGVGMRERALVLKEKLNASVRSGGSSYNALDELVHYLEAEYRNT
Chain of UniProt P19337 (whole entry, looked up): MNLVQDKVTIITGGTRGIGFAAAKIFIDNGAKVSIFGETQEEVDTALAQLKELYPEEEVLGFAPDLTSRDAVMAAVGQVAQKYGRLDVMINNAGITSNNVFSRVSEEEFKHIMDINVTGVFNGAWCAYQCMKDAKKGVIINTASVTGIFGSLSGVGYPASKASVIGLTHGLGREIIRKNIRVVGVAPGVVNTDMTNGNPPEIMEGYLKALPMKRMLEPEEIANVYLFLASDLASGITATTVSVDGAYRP

B1 (protein G96D) — kcat/Km (O[C@H]1CCCc2ccccc21; pH 7.4, phosphate 400 mM, NADPH 250 µM printed, with: NADP+, reverse reaction): 1 ± 0.2 M⁻¹ s⁻¹
B2 (enzyme) — kcat/Km (NC(=O)C1=CN([C@@H]2O[C@H](COP(=O)(O)OP(=O)(O)OC[C@H]3O[C@@H](n4cnc5c(N)ncnc54)[C@H](O)[C@@H]3O)[C@@H](O)[C@H]2O)C=CC1; pH 7.5, 37 °C, per site): 9.3e+06 ± 500000 M⁻¹ s⁻¹
enzyme (Brachypodium distachyon, UniProt I1HY48) — kcat/Km (NC(=O)c1ccc[n+]([C@@H]2O[C@H](COP(=O)(O)OP(=O)(O)OC[C@H]3O[C@@H](n4cnc5c(N)ncnc54)[C@H](OP(=O)(O)O)[C@@H]3O)[C@@H](O)[C@H]2O)c1; pH 8.8, 23 °C, cofactor varied): 1.37e+07 M⁻¹ s⁻¹
WlbA (Thermus thermophilus, UniProt Q72KX8) — kcat/Km (O=C(O)CCC(=O)C(=O)O; pH 8.5, 25 °C, with: enzyme-bound NAD(H)): 100000 M⁻¹ s⁻¹
BaiA2 (Clostridium scindens, UniProt P19337) — kcat/Km (NC(=O)c1ccc[n+]([C@@H]2O[C@H](COP(=O)(O)OP(=O)(O)OC[C@H]3O[C@@H](n4cnc5c(N)ncnc54)[C@H](OP(=O)(O)O)[C@@H]3O)[C@@H](O)[C@H]2O)c1; pH 8.7, 37 °C, cofactor varied, with: glycocholic acid 1.4 mM): 300 M⁻¹ s⁻¹
Tat (Mus musculus, UniProt Q8QZR1) — kcat/Km (N[C@@H](Cc1ccc(O)cc1)C(=O)O; pH 7, 38 °C, 100 mM phosphate, with: 10 mM KGA; PLP): 10700 M⁻¹ s⁻¹
sacB (Priestia megaterium, UniProt D5DC07) — kcat/Km (OC[C@H]1O[C@@](CO)(O[C@H]2O[C@H](CO)[C@@H](O)[C@H](O)[C@H]2O)[C@@H](O)[C@@H]1O; pH 6.9): 11700 M⁻¹ s⁻¹
B3 (enzyme) — kcat/Km (NC(=O)c1ccc[n+](CCO)c1; pH 8, 25 °C): 1.2 ± 0.15 M⁻¹ s⁻¹
B4 (enzyme E323G) — kcat/Km (OC[C@H]1O[C@H](F)[C@H](O)[C@@H](O)[C@@H]1O[C@@H]1O[C@H](CO[C@H]2OC[C@@H](O)[C@H](O)[C@H]2O)[C@@H](O[C@@H]2O[C@H](CO[C@H]3OC[C@@H](O)[C@H](O)[C@H]3O)[C@@H](O[C@@H]3O[C@H](CO[C@H]4OC[C@@H](O)[C@H](O)[C@H]4O)[C@@H](O)[C@H](O)[C@H]3O)[C@H](O)[C@H]2O)[C@H](O)[C@H]1O; pH 7.5, 30 °C, apparent): 128 M⁻¹ s⁻¹
B5 (TcC) — kcat/Km (O=c1[nH]c(=O)c2[nH]cnc2[nH]1; pH 8.3, 37 °C, apparent, with: PRPP 1 mM, MgCl2 12 mM): 50 ± 5 M⁻¹ s⁻¹
enzyme (Arabidopsis thaliana, UniProt Q9STE6) — kcat/Km (O=c1ccn([C@@H]2O[C@H](CO[P@@](=O)(O)O[P@@](=O)(O)O[C@H]3O[C@H](CO)[C@@H](O)[C@H](O)[C@H]3O)[C@@H](O)[C@H]2O)c(=O)[nH]1; pH 7.5, 25 °C): 2210 M⁻¹ s⁻¹
B6 (enzyme) — kcat/Km (Nc1ncnc2c1ncn2[C@@H]1O[C@H](COP(=O)(O)OP(=O)(O)OP(=O)(O)O)[C@@H](O)[C@H]1O; pH 7.5, 37 °C): 7700 M⁻¹ s⁻¹
B7 (iodotyrosine deiodinase) — kcat/Km (Cc1cc(C[C@H](N)C(=O)O)cc(I)c1O; pH 7.4, 25 °C): 50000 ± 10000 M⁻¹ s⁻¹
B8 (enzyme) — kcat/Km (Nc1nc2c(c(=O)[nH]1)[N+]1=CN(c3ccc(C(=O)N[C@@H](CCC(=O)O)C(=O)[O-])cc3)C[C@H]1CN2; pH 7.3, 27 °C): 3.5e+06 M⁻¹ s⁻¹
alanine aminopeptidase (Neisseria meningitidis, UniProt Q9JYV4) — kcat/Km (NC(=O)Cc1cc(=O)oc2cc(NC(=O)[C@@H](N)Cc3ccc4ccccc4c3)ccc12; pH 7.5, 37 °C): 51000 ± 7000 M⁻¹ s⁻¹
B9 (BPHL) — kcat/Km (CC(C)[C@H](N)C(=O)NCc1cccc(NC=NN)c1; pH 7.4, 37 °C): 1.26 ± 0.08 M⁻¹ s⁻¹
PGDH1 (Oryza sativa, UniProt B7F6I8) — kcat/Km (O=C(O)[C@H](O)COP(=O)(O)O; pH 9, 25 °C, NaCl 0.1 M, apparent, with: NAD+): 94000 ± 8000 M⁻¹ s⁻¹

A few entries again:
B7 (iodotyrosine deiodinase) — kcat/Km (Cc1cc(C[C@H](N)C(=O)O)cc(I)c1O; pH 7.4, 25 °C): 50000 ± 10000 M⁻¹ s⁻¹
PGDH1 (Oryza sativa, UniProt B7F6I8) — kcat/Km (O=C(O)[C@H](O)COP(=O)(O)O; pH 9, 25 °C, NaCl 0.1 M, apparent, with: NAD+): 94000 ± 8000 M⁻¹ s⁻¹
